Published values pooled from the literature.
Each line is one published result; not all experiments were run side by side. ± gives the spread as reported.
Organism: Plasmodium falciparum

Under merozoite release, `Nc1ncnc2c1c(-c1ccc(Oc3ccccc3)cc1)cn2C1CCCC1` is recorded as “no effect” (schizont-infected red blood cells, FVO; 30 µM).
`CC[C@H](C)[C@@H]1NC(=O)[C@H](CCCCN)NC(=O)[C@H](CCCCN)NC(=O)[C@H](Cc2ccc(O)cc2)NC(=O)[C@H](CC(C)C)NC(=O)[C@@H]2CCCN2C(=O)[C@H](C)NC(=O)CNC(=O)CNC(=O)[C@H](CO)NC(=O)CNC(=O)CNC(=O)[C@H](CO)NC(=O)[C@H](CCCCN)NC(=O)[C@H](CC(C)C)NC(=O)[C@H](CC(C)C)NC(=O)[C@H](CCCCN)NC(=O)[C@H](CCCCN)NC(=O)[C@H]([C@@H](C)CC)NC(=O)[C@H]([C@@H](C)CC)NC(=O)[C@H](CCCCN)NC(=O)[C@H](CCCCN)NC(=O)[C@H](Cc2ccc(O)cc2)NC(=O)[C@H](CC(C)C)NC(=O)[C@@H]2CCCN2C(=O)[C@H](C)NC(=O)CNC(=O)CNC(=O)[C@H](CO)NC(=O)CNC(=O)CNC(=O)[C@H](CO)NC(=O)[C@H](CCC(=O)O)NC(=O)[C@H](CC(C)C)NC(=O)[C@H](CC(C)C)NC(=O)[C@H](CCCCN)NC(=O)[C@H](CCCCN)NC(=O)[C@H]([C@@H](C)CC)NC1=O` gave a selectivity index of roughly 30 (3D7; 5 mg/mL Albumax II; baseline: RBC HC10 over P. falciparum IC50).
`COc1cc(O)c(-c2cc(-c3cc(-c4c(O)cc(OC)c5c4C[C@@H](C)N[C@@H]5C)c4cc(C)cc(OC)c4c3O)c(O)c3c(OC)cc(C)cc23)c2c1[C@@H](C)N[C@H](C)C2` gave an inhibition of greater than 70% (gametocyte viability, luciferase reporter; NF54-Pfs16-GFP-Luc, early stage II/III; 5 µM, 48 h).
The IC50 of `CC1=CC(=CNC2CCCCCC2)N=C1c1ccc[nH]1` is reported as 2110 nM (parasite growth, SYBR Green I fluorescence; D6, chloroquine-sensitive).
The selectivity ratio of `Cc1ccc(CNC(=O)[C@@H](NC(=O)[C@H](CCc2ccccc2)NC(=O)[C@H](CCc2ccccc2)N(C)C)C(C)C)cc1` is reported as 51 (D10; 72 h; baseline: HFF EC50 over P. falciparum EC50).
For `CCCCN1C(=O)c2ccc3c4c(ccc(c24)C1=O)C(=O)N(CCNc1c2ccc(Cl)cc2nc2ccc(OC)cc12)C3=O`, the inhibition was roughly 30% (parasite growth; 3D7; 50 nM, 12 h, schizont stage).
The selectivity index of `CC[C@H](C)[C@@H]1NC(=O)[C@H](CCCCN)NC(=O)[C@H](CCCCN)NC(=O)[C@H](Cc2ccc(O)cc2)NC(=O)[C@H](CC(C)C)NC(=O)[C@@H]2CCCN2C(=O)[C@H](C)NC(=O)CNC(=O)CNC(=O)[C@H](CO)NC(=O)CNC(=O)CNC(=O)[C@H](CO)NC(=O)[C@H](CCC(=O)O)NC(=O)[C@H](CC(C)C)NC(=O)[C@H](CC(C)C)NC(=O)[C@H](CCCCN)NC(=O)[C@H](CCCCN)NC(=O)[C@H]([C@@H](C)CC)NC(=O)[C@H]([C@@H](C)CC)NC(=O)[C@H](CCCCN)NC(=O)[C@H](CCCCN)NC(=O)[C@H](Cc2ccc(O)cc2)NC(=O)[C@H](CC(C)C)NC(=O)[C@@H]2CCCN2C(=O)[C@H](C)NC(=O)CNC(=O)[C@@H]2CSSC[C@H](NC(=O)[C@H](CC(C)C)NC(=O)[C@H](CCCCN)NC(=O)[C@H](CCCCN)NC(=O)[C@H]([C@@H](C)CC)NC1=O)C(=O)N[C@@H](CCC(=O)O)C(=O)N[C@@H](CC(N)=O)C(=O)NCC(=O)N2` is reported as greater than 3 (3D7; 5 mg/mL Albumax II; baseline: RBC HC10 over P. falciparum IC50).
For `COc1cc2nc(N3CCCCC3)nc(NC3CCN(C)CC3)c2cc1OC`, H3K9me3 level read “decreased” (Western blot; 3D7; 5-fold IC50, 12 h; baseline: DMSO).
`COC1=CC(c2ccc[nH]2)=NC1=CNC1CC1` gave an IC50 of 2400 nM (parasite growth, SYBR Green I fluorescence; D6, chloroquine-sensitive).
For `CC[C@H](C)[C@@H]1NC(=O)[C@H](CCCCN)NC(=O)[C@H](CCCCN)NC(=O)[C@H](Cc2ccc(O)cc2)NC(=O)[C@H](CC(C)C)NC(=O)[C@@H]2CCCN2C(=O)[C@H](C)NC(=O)CNC(=O)CNC(=O)[C@H](CO)NC(=O)CNC(=O)CNC(=O)[C@H](CC(N)=O)NC(=O)[C@H](CCC(=O)O)NC(=O)[C@H](CC(C)C)NC(=O)[C@H](CC(C)C)NC(=O)[C@H](CCCCN)NC(=O)[C@H](CCCCN)NC(=O)[C@H]([C@@H](C)CC)NC(=O)[C@H]([C@@H](C)CC)NC(=O)[C@H](CCCCN)NC(=O)[C@H](CCCCN)NC(=O)[C@H](Cc2ccc(O)cc2)NC(=O)[C@H](CC(C)C)NC(=O)[C@@H]2CCCN2C(=O)[C@H](C)NC(=O)CNC(=O)CNC(=O)[C@H](CO)NC(=O)CNC(=O)CNC(=O)[C@H](CC(N)=O)NC(=O)[C@H](CCC(=O)O)NC(=O)[C@H](CC(C)C)NC(=O)[C@H](CC(C)C)NC(=O)[C@H](CCCCN)NC(=O)[C@H](CCCCN)NC(=O)[C@H]([C@@H](C)CC)NC1=O`, the selectivity index was 12.7 ± 2.7 (3D7; 5 mg/mL Albumax II; baseline: RBC HC10 over P. falciparum IC50).
The parasitaemia of `C[OH+][Cu-2]12[O]C(c3cn(-c4ccccc4)nc3-c3ccc(C)cc3)=N[N+]1=C(C)c1c(cc(C)oc1=O)[O]2` (centres unmarked) is reported as 0% (3D7; 12.5 µg/mL, 72 h).
`CCC1=C(C)C(c2ccc[nH]2)=NC1=CNC12CC3CC(CC(C3)C1)C2` gave an IC50 of 19 nM (parasite growth, SYBR Green I fluorescence; D6, chloroquine-sensitive).
`O=C(CNc1cccc(S(=O)(=O)N2CCOCC2)c1)Nc1ccc(F)c(Cl)c1` has an EC50 of 11000 nM (parasite growth; 3D7; blood stage).
`COc1ccc2c(c1)C1CC(C)(N2)c2c(C)nc3ccc(OC)cc3c21` (centres unmarked) has an IC50 of 7200 nM (ring stage growth; INDO; 12 h, early to late ring).
With `Cc1ccc(CNC(=O)[C@H](CCCCNC(=O)OCc2ccccc2)NC(=O)[C@H](CC2CCCCC2)NC(=O)Cc2cccnc2)cc1` the selectivity ratio was greater than 24 (D10; 72 h; baseline: HFF EC50 over P. falciparum EC50).
`CC1=CC(=CNC23CC4CC(CC(C4)C2)C3)N=C1c1ccc[nH]1` has an IC50 of 106 nM (parasite growth, SYBR Green I fluorescence; D6, chloroquine-sensitive).
`C#CCOCCCC1OC2OC3(C)CCC4C(C)CCC(C1C)C24O3` (centres unmarked) gave a selectivity index of greater than 2.51 (W2; 72 h; baseline: HepG2 over blood-stage parasites).
`CCN(CC)c1ccc2nc3c4ccccc4/c(=N/c4ccncc4)cc-3oc2c1` has a growth inhibition of greater than 99% (NF54; 250 ng/mL, 24 h, rings, trophozoites, schizonts).
For `COCn1ccc(NCCNCCCOc2ccc3c(NCCCc4ccccc4)ncnc3c2)nc1=O`, inhibition read “inactive” (DNA methylation; Plasmodium falciparum nuclear extract; 32 µM).
The parasitaemia of `C[OH+][Cu-2]12[O]C(c3cn(-c4ccccc4)nc3-c3ccc(Cl)cc3)=N[N+]1=C(C)c1c(cc(C)oc1=O)[O]2` (centres unmarked) is reported as 21.7% (3D7; 12.5 µg/mL, 72 h).
With `CN1CCC[C@@H]1C(=O)N[C@@H](Cc1ccc(-c2ccccc2)cc1)B(O)O` the parasitaemia reduction was roughly 98% (Pf3D7 0087/N9, SCID mouse; oral, 50 mg/kg, daily for 4 days; baseline: untreated).
`CN(C)c1ncnc2c1c(-c1ccc(Oc3ccccc3)cc1)cn2C1CCCC1` — result for intracellular growth: “no effect” (invasion IC50, ring stage).
`Cc1ccc(NCC(=O)Nc2ccc(F)c(Cl)c2)cc1S(=O)(=O)N1CCOCC1` — result for antiplasmodial activity: “inactive” (stage IV/V gametocytes; 40 µM).
For `C[OH+][Cu-2]12[O]C(c3cn(-c4ccccc4)nc3-c3ccc(Br)cc3)=N[N+]1=C(C)c1c(cc(C)oc1=O)[O]2` (centres unmarked), the parasitaemia was 23.6% (3D7; 12.5 µg/mL, 72 h).
`Clc1ccc2c(c1)nc(N1CCNCC1)n2-c1ccccc1` — result for antiplasmodial activity: “inactive” (pLDH; NF54; concentration not given, 48 h).
`C=C1[C@@H]([C@@]2(C)C=CC(=O)C(C)(C)[C@@H]2CC(=O)OC)[C@@H](OC(C)=O)[C@H](OC(C)=O)[C@@]2(C)[C@H](c3ccoc3)C[C@H]3O[C@]132`: “antiplasmodial activity class” “active” (parasite growth; D6 and W2; concentration not given).
For `Cc1ccc(CNC(=O)[C@H](CCc2ccccc2)NC(=O)[C@H](CCc2ccccc2)NC(=O)[C@@H](N)Cc2ccncc2)cc1`, the selectivity ratio was 189 (D10; 72 h; baseline: HFF EC50 over P. falciparum EC50).
The parasitaemia of `C[OH+][Cu-2]12[O]C(c3cn(-c4ccccc4)nc3-c3ccccc3)=N[N+]1=C(C)c1c(cc(C)oc1=O)[O]2` (centres unmarked) is reported as 0% (3D7; 100 µg/mL, 72 h).
With `Cc1ccc(NCC(=O)N2CCC(F)(F)CC2)cc1S(=O)(=O)N1CCOCC1` the EC50 was greater than 50000 nM (parasite growth; 3D7; blood stage).
`CC[C@H](C)[C@H](NC(=O)[C@@H](NC(=O)[C@H](Cc1ccc(O)cc1)NC(=O)[C@H](CCCCN)NC(=O)[C@H](CCCCN)NC(=O)[C@H](CC(C)C)NC(=O)[C@H](CC(=O)O)NC(=O)[C@H](Cc1ccc(O)cc1)NC(=O)[C@H](CCC(N)=O)NC(=O)[C@H](CCCCN)NC(=O)[C@@H](NC(=O)[C@H](Cc1ccccc1)NC(=O)[C@H](CCCCN)NC(=O)[C@H](CCCCN)NC(=O)[C@H](Cc1c[nH]c2ccccc12)NC(=O)[C@H](CCCCN)NC(=O)[C@H](CCSC)NC(=O)[C@H](CCCNC(=N)N)NC(=O)[C@H](CCCNC(=N)N)NC(=O)[C@H](CC(N)=O)NC(=O)[C@H](CCC(N)=O)NC(=O)[C@H](Cc1ccccc1)NC(=O)[C@H](Cc1c[nH]c2ccccc12)NC(=O)[C@@H](NC(=O)[C@H](CCCCN)NC(=O)[C@@H](NC(=O)[C@H](CCC(N)=O)NC(=O)[C@@H](N)CCCNC(=N)N)[C@@H](C)CC)[C@@H](C)CC)[C@@H](C)CC)[C@@H](C)CC)C(=O)O` — result for “maximum TUNEL-positive parasites”: roughly 50% (50 µM, 16 h).
The inhibition of `COc1cc(C)c(-c2ccc3c(c2O)[C@@H](C)N[C@H](C)C3)c2ccc(-c3c(C)c(-c4ccc5c(c4O)[C@@H](C)N[C@H](C)C5)c4cccc(OC)c4c3O)c(O)c12` is reported as greater than 70% (gametocyte viability, luciferase reporter; NF54-Pfs16-GFP-Luc, early stage II/III; 5 µM, 48 h).
`C[OH+][Cu-2]12[O]C(c3cn(-c4ccccc4)nc3-c3ccc(F)cc3)=N[N+]1=C(C)c1c(cc(C)oc1=O)[O]2` (centres unmarked) gave a parasitaemia of 2% (3D7; 12.5 µg/mL, 72 h).
